Published values pooled from the literature.
Each line is one published result; not all experiments were run side by side.
Organism: Staphylococcus aureus

Compound	assay	test system	conditions	MIC
C/C(=C\C(=O)OCCCCCCCCC(=O)O)C[C@@H]1OC[C@H](C[C@@H]2O[C@H]2[C@@H](C)[C@H](C)O)[C@@H](O)[C@H]1O	–	CRB, PBP4 overexpressor	–	0.5 µg/mL
CCCCCCCCCC(=O)N[C@@H](Cc1c[nH]c2ccccc12)C(=O)N[C@H](CC(N)=O)C(=O)N[C@@H](CC(=O)O)C(=O)N[C@@H]1C(=O)NCC(=O)N[C@@H](CCCN)C(=O)N[C@@H](CC(=O)O)C(=O)N[C@H](C)C(=O)N[C@@H](CC(=O)O)C(=O)NCC(=O)N[C@H](CO)C(=O)N[C@@H]([C@H](C)CC(=O)O)C(=O)N[C@@H](CC(=O)c2ccccc2N)C(=O)O[C@@H]1C	broth microdilution	VISA LIM strain 2, Mueller-Hinton broth, Mg2+ 10 mg/L	16 h, together with: Ca2+ 10 mM	0.125 µg/mL
CC[C@H](C)[C@H](NC(=O)[C@H](C)N)C(=O)N[C@@H](CO)C(=O)NCC(=O)N[C@@H](CO)C(=O)N[C@@H](CC(C)C)C(=O)N[C@H](C(=O)N[C@H](C(=O)N[C@@H](CC(C)C)C(=O)N[C@@H](Cc1ccccc1)C(=O)NCC(=O)N[C@@H](Cc1ccc(O)cc1)C(=O)N[C@@H](CCCNC(=N)N)C(=O)N[C@@H](CCCCN)C(=O)N[C@@H](CCCNC(=N)N)C(=O)N[C@@H](CCCCN)C(=O)N[C@@H](CCCNC(=N)N)C(=O)N[C@@H](CCCCN)C(N)=O)[C@@H](C)O)C(C)C	broth microdilution	–	24 h, 37 °C	128 µM
CCCCCCC#Cc1cncc(-c2nnc(SCc3cc([N+](=O)[O-])cc([N+](=O)[O-])c3)n2C2CCNCC2)c1	broth microdilution	Mu50 MRSA VISA	18 to 24 h, 37 °C	8 µg/mL
CC[C@H](C)[C@H](NC(=O)[C@H](CC(C)C)NC(=O)[C@H](CCCCN)NC(=O)[C@@H](NC(=O)[C@H](C)NC(=O)[C@H](CCC(=O)O)NC(=O)[C@H](Cc1c[nH]cn1)NC(=O)[C@@H](NC(=O)[C@H](CCCCN)NC(=O)[C@H](CCC(N)=O)NC(=O)[C@H](Cc1ccccc1)NC(=O)[C@@H](NC(=O)[C@H](CCCCN)NC(=O)[C@@H](N)CCCCN)C(C)C)[C@@H](C)CC)[C@@H](C)CC)C(N)=O	broth microdilution	USA300 resistant	18 h, 37 °C	64 µM
CCCCCCCC/C=C\CCCCCCCC(=O)NS(=O)(=O)NCCC	–	ATCC 33591 methicillin-resistant	–	> 200 µg/mL
CC[C@H](C)[C@H](NC(=O)[C@H](Cc1c[nH]c2ccccc12)NC(=O)[C@@H](NC(=O)[C@H](Cc1ccccc1)NC(=O)[C@@H]1CCCN1C(=O)[C@@H](NC(=O)[C@H](C)N)[C@@H](C)CC)[C@@H](C)CC)C(=O)N[C@@H](Cc1ccccc1)C(=O)N[C@@H](CCCNC(=N)N)C(=O)N[C@@H](CC(C)C)C(=O)N[C@@H](CC(C)C)C(=O)N[C@@H](CCCNC(=N)N)C(=O)N[C@@H](CCCCN)C(=O)NCC(N)=O	broth microdilution	ATCC 35556	18 h, 37 °C	0.47 µM
Cc1ccc2[nH]c3c(c2c1)CCCC3NCCc1ccc(Br)cc1 (stereo not shown)	broth microdilution	SG511	–	4 µg/mL
CC[C@H](C)[C@H](NC(=O)CN)C(=O)N[C@@H](C)C(=O)N[C@@H](CC(=O)O)C(=O)N[C@@H](C)C(=O)N[C@H](C(=O)N[C@@H](CCCCN)C(=O)N[C@@H](C)C(=O)N[C@H](C(=O)N[C@@H](C)C(=O)N[C@@H](CCCCN)C(=O)N[C@@H](C)C(=O)N[C@@H](CC(C)C)C(=O)NCC(N)=O)[C@@H](C)CC)[C@@H](C)CC	–	ATCC 29213, Mueller-Hinton broth	12 h, 37 °C	32 µg/mL
CC[C@H](C)[C@H](NC(=O)[C@H](CC(C)C)NC(=O)[C@H](CCCNC(=N)N)NC(=O)[C@@H](N)CCCNC(=N)N)C(=O)N[C@@H](CCCNC(=N)N)C(=O)N[C@@H](CCCCN)C(=O)N[C@@H](CC(C)C)C(=O)N[C@@H](CCCCN)C(=O)NCC(=O)N[C@@H](CC(C)C)C(=O)N[C@@H](CCCCN)C(=O)N[C@@H](CCCCN)C(=O)N[C@@H](Cc1ccc(O)cc1)C(=O)N[C@@H](CC(C)C)C(=O)N[C@@H](Cc1ccc(O)cc1)C(=O)N[C@@H](Cc1ccccc1)C(=O)N[C@@H](CCCCN)C(=O)N[C@@H](CC(C)C)C(=O)N[C@@H](CCC(N)=O)C(=O)N[C@@H](CC(C)C)C(=O)N[C@@H](CC(C)C)C(=O)N[C@@H](CCCCN)C(=O)N[C@@H](CCCCN)C(N)=O	–	KCTC 1621, Mueller-Hinton broth	together with: 2.5 mM CaCl2	8 µM
CC[C@H](C)[C@H](N)C(=O)N[C@@H](CC(C)C)C(=O)NCC(=O)N[C@@H](CCC(=O)O)C(=O)N[C@H](C(=O)N[C@@H](Cc1c[nH]c2ccccc12)C(=O)N[C@@H](CCCCN)C(=O)NCC(=O)N[C@H](C(=O)N[C@@H](CCCCN)C(=O)N[C@@H](CC(=O)O)C(=O)N[C@H](C(=O)N[C@@H](CC(C)C)C(N)=O)[C@@H](C)CC)[C@@H](C)CC)[C@@H](C)CC	broth microdilution	ATCC 25923	together with: NaCl 150 mM	> 100 µM
CC(C)C[C@@H]1NC(=O)[C@H](Cc2ccccc2)NC(=O)[C@H](Cc2ccc(O)cc2)NC(=O)[C@H](CC(C)C)NC(=O)[C@H](CCC(=O)O)NC(=O)[C@H](Cc2ccccc2)NC(=O)[C@H](CCCNC(=N)N)NC(=O)[C@H](CCC(N)=O)NC(=O)[C@H](CC(C)C)NC(=O)[C@H](CC(=O)O)NC(=O)[C@@H]2CCCN2C(=O)[C@H](CCCCN)NC(=O)[C@H](C(C)C)NC(=O)[C@H](CC(N)=O)NC(=O)[C@H](Cc2ccc(O)cc2)NC(=O)[C@H]([C@@H](C)O)NC(=O)[C@@H](N)CSSC[C@@H](C(=O)O)NC(=O)[C@H]([C@@H](C)O)NC(=O)[C@H](C(C)C)NC(=O)[C@H]([C@@H](C)O)NC(=O)CNC1=O	broth dilution	laboratory strain	24 h	> 40 µM
CC[C@H](C)[C@H](NC(=O)[C@H](CC(C)C)NC(=O)[C@H](CCCNC(=N)N)NC(=O)[C@@H](N)CCCNC(=N)N)C(=O)N[C@@H](CCCNC(=N)N)C(=O)N[C@@H](CCCCN)C(=O)N[C@@H](CC(C)C)C(=O)N[C@@H](CCCCN)C(=O)NCC(=O)N1CCC[C@H]1C(=O)N[C@@H](CCCCN)C(=O)N[C@H](C(=O)N[C@@H](Cc1ccc(O)cc1)C(=O)N[C@@H](CC(C)C)C(=O)N[C@@H](Cc1ccc(O)cc1)C(=O)N[C@@H](Cc1ccccc1)C(=O)N[C@@H](CCCCN)C(=O)N[C@@H](CC(C)C)C(=O)N[C@@H](CCC(N)=O)C(=O)N[C@@H](CC(C)C)C(=O)N[C@@H](CC(C)C)C(=O)N[C@@H](CCCCN)C(=O)N[C@@H](CCCCN)C(N)=O)[C@@H](C)CC	–	CCARM 3089, methicillin-resistant, Mueller-Hinton broth	24 h	16 µM

Excerpt of the above:
Compound	assay	test system	conditions	MIC
Cc1ccc2[nH]c3c(c2c1)CCCC3NCCc1ccc(Br)cc1 (stereo not shown)	broth microdilution	SG511	–	4 µg/mL
CC[C@H](C)[C@H](NC(=O)CN)C(=O)N[C@@H](C)C(=O)N[C@@H](CC(=O)O)C(=O)N[C@@H](C)C(=O)N[C@H](C(=O)N[C@@H](CCCCN)C(=O)N[C@@H](C)C(=O)N[C@H](C(=O)N[C@@H](C)C(=O)N[C@@H](CCCCN)C(=O)N[C@@H](C)C(=O)N[C@@H](CC(C)C)C(=O)NCC(N)=O)[C@@H](C)CC)[C@@H](C)CC	–	ATCC 29213, Mueller-Hinton broth	12 h, 37 °C	32 µg/mL
